Experimental data pooled from the literature.
Compare with care: the assays were run in different laboratories. ± gives the spread as reported.

SMILES | assay | system | conditions | half-life [h]
Nc1ccn([C@@H]2O[C@H](CO)[C@@H](O)C2(F)F)c(=O)n1 | HPLC-UV | human, plasma | intravenous, 800 mg/m^2, median, after paricalcitol | 3.71
COc1cc([C@H]2Oc3ccc([C@H]4Oc5cc(O)cc(O)c5C(=O)[C@@H]4O)cc3O[C@@H]2CO)ccc1O |  | OATP1B1/1B3 humanized mice, plasma | oral gavage, 500 mg/kg silymarin | 0.34
CC#CC(=O)N1CC[C@@H](n2c(=O)n(-c3ccc(Oc4ccccc4)cc3)c3c(N)ncnc32)C1 |  | human, fasted, plasma | oral, 160 mg once daily, cycle 1 day 1 | ~4.7
Cc1nc2ccc(F)cc2n1-c1nc(N)c(F)c(Nc2ccc(C(F)(F)F)cc2)n1 |  | human patients, plasma | oral, 300 mg twice weekly, cycles 1 and 2 pooled | 9.25
CC(C)C[C@H](NC(=O)[C@H](CC(C)C)NC(=O)[C@H](Cc1c[nH]c2ccccc12)NC(=O)[C@H](CCC(=O)O)NC(=O)[C@@H](NC(=O)[C@H](Cc1ccccc1)NC(=O)[C@H](CCC(=O)O)NC(=O)[C@H](CCCCNC(=O)COCCOCCNC(=O)COCCOCCNC(=O)CC[C@H](NC(=O)CCCCCCCCCCCCCCCCCCC(=O)O)C(=O)O)NC(=O)[C@H](C)NC(=O)[C@H](CCCCN)NC(=O)[C@H](CCCCN)NC(=O)[C@H](CCC(=O)O)NC(=O)[C@H](CC(=O)O)NC(=O)[C@H](CC(C)C)NC(=O)[C@H](Cc1ccc(O)cc1)NC(=O)[C@H](CCCCN)NC(=O)[C@H](CO)NC(=O)[C@H](Cc1ccc(O)cc1)NC(=O)[C@H](CC(=O)O)NC(=O)[C@H](CO)NC(=O)[C@@H](NC(=O)[C@H](Cc1ccccc1)NC(=O)[C@@H](NC(=O)CNC(=O)[C@H](CCC(N)=O)NC(=O)C(C)(C)NC(=O)[C@@H](N)Cc1c[nH]cn1)[C@@H](C)O)[C@@H](C)O)C(C)C)C(=O)N[C@@H](CCC(=O)O)C(=O)NCC(=O)NCC(=O)N1CCC[C@H]1C(=O)N[C@@H](CO)C(=O)N[C@@H](CO)C(=O)NCC(N)=O |  | human, plasma | subcutaneous, 16 mg once weekly, week 20, geometric mean | 194
C=CC(=O)N(C)CCOc1c(N)ncnc1-c1cc(F)cc(NC(=O)c2ccc(C3CC3)cc2F)c1C |  | human, whole blood | oral, 600 mg, single ascending dose, median | 14.1
CC(C)[C@H](N)C(=O)NCCCS(=O)(=O)O |  | human, plasma | oral, 256.5 mg once daily days 8-14, day 14, fasted, capsule | 0.894
N#Cc1cc(NC(=O)[C@H]2c3ccccc3C(=O)N(CC(F)(F)F)[C@@H]2c2cccnc2)ccc1F |  | human, plasma | oral, 600 mg, median | 19.8
Fc1ccc([C@@H]2CCNC[C@H]2COc2ccc3c(c2)OCO3)cc1 |  | human, CYP2D6 poor metabolizers | oral, 20 mg, steady state, geometric mean | 23
Cn1cncc1[C@@](N)(c1ccc(Cl)cc1)c1ccc2c(c1)c(-c1cccc(Cl)c1)cc(=O)n2C | non-compartmental analysis | human, plasma | oral, 300 mg/m^2, median, initial cohort, first cycle dose | 4.07
C[C@H](Oc1ccc(Br)cc1-c1ccon1)C(=O)O | LC-MS/MS, non-compartmental | human, plasma | 400 mg once daily, day 10, multiple ascending dose, mean | 4.82
C#C[C@]1(CO)O[C@@H](n2cnc3c(N)nc(F)nc32)C[C@@H]1O |  | human, plasma | oral, 30 mg single dose, fed | 63.5
CCN1CCN(Cc2ccc(Nc3ncc(F)c(-c4cc(F)c5nc6n(c5c4)[C@H](C)CCC6)n3)nc2)CC1 |  | human, plasma | 300 mg single dose, mean | 51.1
[H]/N=C(/N)c1ccc(NCc2nc3cc(C(=O)N(CCC(=O)O)c4ccccn4)ccc3n2C)cc1 |  | healthy human subjects, plasma | oral, 150 mg, dabigatran etexilate, arithmetic mean, together with: fruquintinib 5 mg | 9.44
NCCCS(=O)(=O)O |  | human, plasma | oral, 256.5 mg once daily, day 14, capsule, fasted, dosed days 8-14 | 46.4
Cc1cc(/C=C/C#N)cc(C)c1Nc1ccnc(Nc2ccc(C#N)cc2)n1 |  | human, normal renal function, plasma | oral, fixed-dose combination | 33.5
Cc1cc(OCCOCCC(F)(F)P(=O)(O)O)ccc1CCc1cnc2c(N)nc3cc(CCC(=O)O)ccc3c2c1 |  | human, serum | intratumoral, 400 µg every 2 weeks, cycle 2 day 15 | 27.2
COc1cc(Nc2ncc3c(n2)-c2ccc(Cl)cc2C(c2c(F)cccc2OC)=NC3)ccc1C(=O)O |  | human patients, plasma | oral, 40 mg, cycle 1 day 1, together with: pembrolizumab | 4.6
NC(CO)(CO)CCc1ccc(Sc2cccc(OCc3ccccc3)c2)cc1Cl |  | human male, whole blood | oral, 3 mg, together with: cyclosporin 100 mg b.i.d. | 126
C[C@H]1[C@@H](O)O[C@@H]2O[C@@]3(C)CC[C@H]4[C@H](C)CC[C@@H]1[C@@]24OO3 |  | human, both sexes, plasma | oral, dose not given, fixed-dose combination | 1.59
CC1(COc2ccc3c(c2)ncn3-c2ccc3cccc(N4CCC(N)CC4)c3n2)COC1 |  | human patients, recurrent/progressive HGG or DIPG, serum | oral, 100 mg/m^2, day 28, median | 14.9
O=C(COc1ccc(Cl)cc1)NC12CC(c3nnc([C@H]4C[C@@H](OC(F)(F)F)C4)o3)(C1)C2 |  | healthy human volunteers fasted, plasma | oral, 45 mg single dose, arithmetic mean | 31
CCN1CCN(Cc2ccc(Nc3ncc(F)c(-c4cc(F)c5nc(C)n(C(C)C)c5c4)n3)nc2)CC1 |  | healthy human, fasted | oral, 150 mg, tablet | 26.8

SMILES | assay | system | conditions | half-life [h]
N#CCNC(=O)c1ccc(-c2ccnc(Nc3ccc(N4CCOCC4)cc3)n2)cc1 |  | healthy human volunteers, plasma | oral, 100 mg once daily, day 7, fed, given alone | 5.47
CC(C)NC(=O)COc1cccc(-c2nc(Nc3ccc4[nH]ncc4c3)c3ccccc3n2)c1 |  | human male, plasma | oral, 200 mg once daily, day 13, fed, geometric mean, together with: rosuvastatin | 9
CC(C)c1nc(N(C)S(C)(=O)=O)nc(-c2ccc(F)cc2)c1/C=C/[C@@H](O)C[C@@H](O)CC(=O)O |  | human, plasma | oral, 20 mg, day 2, geometric mean, single agent | 14.6
Cc1nc(-c2ccc(OCC(C)C)c(C#N)c2)sc1C(=O)O |  | human | oral, 40 mg once daily, together with: verinurad 0 mg | 6.89
CO[C@H]1C[C@@H]2CC[C@@H](C)[C@@](O)(O2)C(=O)C(=O)N2CCCC[C@H]2C(=O)O[C@H]([C@H](C)C[C@@H]2CC[C@@H](OC(=O)NCCOCCOCCOCCOCCOCCOCCOCCOCCC(=O)N3CCc4cc(Cn5nc(-c6ccc7oc(N)nc7c6)c6c(N)ncnc65)ccc4C3)[C@H](OC)C2)C[C@@H](O)[C@H](C)/C=C(\C)[C@@H](O)[C@@H](OC)C(=O)[C@H](C)C[C@H](C)/C=C/C=C/C=C/1C |  | human, plasma | intravenous, 6 mg, cycle 1 day 1, arithmetic mean | 3.76
NC[C@@]1(CC(=O)O)[C@@H]2CC[C@H]3C[C@@H]2[C@@H]1C3 |  | human, normal renal function, plasma | oral, 20 mg single dose, geometric mean | 3.52
O=C(O)CCC(=O)O.[2H]C([2H])([2H])Oc1cc(C)c2[nH]ccc2c1CN1CC[C@@H](C2CC2)C[C@H]1c1ccc(C(=O)O)cc1 |  | human, plasma | 50 mg twice daily, day 10, multiple ascending dose, mean | 26.6
COc1ccc([C@@H](O)c2cc(-c3ncnc4cc(N5CCOCC5)ccc34)c(F)cc2Cl)nn1 |  | human, plasma | oral, 100 mg twice daily, single dose, geometric mean | 2.37
COC(=O)N[C@H](C(=O)N1CCC[C@H]1c1nc2cc([C@H]3CC[C@H](c4cc5nc([C@@H]6CCCN6C(=O)[C@@H](NC(=O)OC)[C@@H](C)OC)[nH]c5cc4F)N3c3cc(F)c(N4CCC(c5ccc(F)cc5)CC4)c(F)c3)c(F)cc2[nH]1)[C@@H](C)OC |  | healthy human subjects, plasma | oral, single dose alone | 11.3
C[C@H]1[C@H]2N(C(=O)CN(C)N2C(=O)NCc2ccccc2)[C@@H](Cc2ccc(OP(=O)(O)O)cc2)C(=O)N1Cc1cccc2cccnc12 |  | human, plasma | intravenous infusion, 280 mg/m2 over 4 h, median, single dose | 0.5
COc1ncc(-c2nc3c(n2C(C)C)[C@H](c2ccc(Cl)cc2)N(c2cc(Cl)cn(C)c2=O)C3=O)c(OC)n1 |  | human, plasma | oral, 200 mg, C2D1, high-dose, median | 6.8
C[C@H](O)c1cc(C(=O)N[C@@H](C)Cn2ccc(-c3ccc(C#N)c(Cl)c3)n2)n[nH]1 |  | human, fasted, plasma | oral, 300 mg darolutamide tablet, geometric mean | 16.4
C[C@@H](Nc1cc(F)cc(F)c1)c1cc(C(=O)N(C)C)cc2c(=O)cc(N3CCOCC3)oc12 |  | human | oral, 180 mg twice daily, day 1, 5:2 schedule, single dose, geometric mean | 5.39
Cc1nc(Nc2ncc(C(=O)Nc3c(C)cccc3Cl)s2)cc(N2CCN(CCO)CC2)n1 |  | human patients, plasma | oral, 65 mg/m^2, day 8 | 5.2 ± 1.3
COc1cc(C(=O)NC2CCN(C)CC2)c(F)cc1Nc1ncc(C(F)(F)F)c(Oc2cccc3c2C(=O)N(C)C3)n1 |  | human patients, plasma | oral, 50 mg single dose, geometric mean | 25.2
CCS(=O)(=O)Nc1ccc(Oc2ccc(F)cc2F)c(-c2cn(C)c(=O)c3[nH]ccc23)c1 |  | human, plasma | oral, 2.5 mg, cycle 1 day 8, harmonic mean | 14.8 ± 2.8
CNC(=O)n1ccc2cc(Oc3ccnc(NC(=O)c4ccc(C5CCN(CCO)CC5)cc4)c3)c(OCCOC)cc21 |  | healthy human, plasma | oral, 35 mg, geometric mean, alone | 29.4
Cn1cncc1-c1c(F)cncc1NC(=O)c1c(N)nn2cc(F)cnc12 |  | human patients, plasma | oral, 90 mg | 1.7
CC(C)(C)OC[C@@H]1C(=O)NCCN1C(=O)C[C@H](N)Cc1cc(F)c(F)cc1F |  | healthy humans, plasma | oral, 5 mg, alone | 22.3 ± 6.31
COc1ccc(F)cc1C(=O)NCc1ccc(-c2nn([C@@H](C)C(F)(F)F)c(N)c2C(N)=O)cc1 |  | human patients, blood | oral, dose not given, once daily dosing | ~20
C#C[C@]1(COP(=O)(O)O)O[C@@H](n2cnc3c(N)nc(F)nc32)C[C@@H]1O | item: islatravir triphosphate | human, PBMC | oral, 100 mg single dose | 123
CC(C)(Sc1ccncc1-c1ccc(C#N)c2ccccc12)C(=O)O |  | human | oral, 15 mg once daily, together with: febuxostat 0 mg | 19.6
NCc1cc2c(cc1F)C(=O)N(C1CCC(=O)NC1=O)C2 (stereo not shown) |  | human, mixed sex, whole blood |  | > 3
